Results of several laboratories.
Lines come from different studies, so protocols differ. “And” joins repeats or separate records; there may be more than shown. Numbers after ± are the reported error.
Cell line: HeLa

C#CCCCOc1c2c(c(-c3ccc4c(c3)OCO4)c3cc(OC)c(OC)cc13)C(=O)OC2 — CC50 (24 h): 36.5 ± 7.13 µM
CCCCCCCCCCCCOS(=O)(=O)[O-].[Na+] — cytotoxicity (50 µM, 24 h): not toxic
CN1CCN(CCCN2c3ccccc3Sc3ccc(C(F)(F)F)cc32)CC1 — IC50 (cytotoxicity; 4.5 (unit not given)): 30.6 µM
Nc1nc(CCc2ccccc2)c(Br)c(=O)[nH]1 — minimum cytotoxic concentration (cell morphology alteration): > 100 µM
CCOC(=O)CN1CCN(CCCOc2c3c(c(-c4ccc5c(c4)OCO5)c4cc(OC)c(OC)cc24)C(=O)OC3)CC1 — CC50 (24 h): 63 ± 11.2 µM
Nc1nc(O)c2ncn(COC(CO)CO)c2n1 — minimum cytotoxic concentration (cell morphology alteration): > 100 µM
Nc1ncnc2c([C@@H]3N[C@H](CO)[C@@H](O)[C@H]3O)c[nH]c12 — cell number (25 µM): 5700 and 5930
C[C@@H]1O[C@@H](O[C@H]2C[C@@H](O)[C@]3(CO)[C@H]4[C@H](O)C[C@]5(C)[C@@H](C6=CC(=O)OC6)CC[C@]5(O)[C@@H]4CC[C@]3(O)C2)[C@H](O)[C@H](O)[C@H]1O — cytotoxicity (ATP content; 25 µM, 6 h): not toxic
COc1ccc(/C=C/c2nc(N)[nH]c(=O)c2Br)cc1OC — minimum cytotoxic concentration (cell morphology alteration): > 100 µM
O=C(NCCCNc1nc(Nc2cccc(NC(=O)N3CCCC3)c2)ncc1I)c1cccs1 — maximum tolerated concentration (MTT; 24 h): ≤ 12.5 µM

For quick reference, copied from above:
Nc1ncnc2c([C@@H]3N[C@H](CO)[C@@H](O)[C@H]3O)c[nH]c12 — cell number (25 µM): 5700 and 5930
